Measurements pooled from the literature.
Each numbered part is a random draw from the data of one study; scales do not carry over between parts. Substitutions count along the parent as printed.

Study 1
Target: CCNB2, cyclin fold, Cln2 fusion (human)
Technique: yeast growth competition, sequencing
Medium: yeast
Notes: weak parent motif
Baseline: not given
Direction: higher = stronger binding
Starting sequence: CDKN1B docking peptide (human); PSACRNLFGPVDH; partner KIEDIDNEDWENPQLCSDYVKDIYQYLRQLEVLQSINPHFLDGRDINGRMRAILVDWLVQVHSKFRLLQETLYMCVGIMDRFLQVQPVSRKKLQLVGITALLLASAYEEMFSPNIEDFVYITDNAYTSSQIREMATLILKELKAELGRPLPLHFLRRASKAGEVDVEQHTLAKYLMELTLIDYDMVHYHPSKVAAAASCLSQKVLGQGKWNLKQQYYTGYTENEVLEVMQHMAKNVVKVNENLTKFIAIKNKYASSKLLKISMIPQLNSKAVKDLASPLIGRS
Change | normalised enrichment score
S2V | 0.379
L7D | -0.168
R5M | -0.331
D12H | 0.222
D12E | -0.0552
A3N | 0.206
P10W | 0.194
R5Q | -0.553
V11I | 0.134
N6W | 0.19
L7H | 0.292
H13N | -0.0487
D12M | 0.338
F8W | -0.148
V11K | 0.233
S2F | -0.153
V11H | 0.515
D12C | 0.53
L7M | 0.291
C4V | 0.192
C4A | 0.143
G9S | -0.216
D12L | 0.227
R5K F8L | -0.0244
P10R | 0.12

Study 2
Target: ABI1, truncated, D143A, DHFR fusion (Arabidopsis thaliana)
Technique: DHFR PCA, deep sequencing
Medium: yeast
Notes: methotrexate growth selection, single substitutions
Together with: (+)-ABA 0.11 µM
Baseline: wild-type fitted maximum
Direction: higher = stronger binding
Starting sequence: PYL1, truncated, DHFR fusion (Arabidopsis thaliana); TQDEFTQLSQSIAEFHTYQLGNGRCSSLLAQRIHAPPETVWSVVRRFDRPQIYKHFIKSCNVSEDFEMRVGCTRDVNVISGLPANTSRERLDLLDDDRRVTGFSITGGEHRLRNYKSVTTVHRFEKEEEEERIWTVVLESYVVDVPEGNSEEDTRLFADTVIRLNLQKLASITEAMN
Change | relative binding score [%]
S104A | -0.57
F15D | 2.05
I105P | -9.42
H34T | -0.672
K126V | 43.8
F157G | -0.368
I133Y | 27.2
W134V | 23.6
G81E | 10.3
K54F | 0.758
R49G | -0.452

Study 3
Target: Histone acetyltransferase KAT6A, winged helix 1, GST fusion (KAT6A, Homo sapiens, UniProt Q92794, residues 1-85)
Technique: protein binding microarray
Form: double-stranded DNA, one strand shown
Medium: in vitro
Tested at: not given
Notes: 8-mer, flanks averaged, mean of 2 arrays, mostly near background
Baseline: not given
Direction: higher = stronger binding
Construct (chain): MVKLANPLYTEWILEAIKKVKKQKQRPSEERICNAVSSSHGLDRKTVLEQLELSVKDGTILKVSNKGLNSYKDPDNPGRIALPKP
Oligonucleotide | E-score
TCAAACGA | -0.0896
AGATGCCC | -0.0776
ACACCTCT | -0.0636
ACGAGGAC | -0.109
GCTTCTCC | 0.00579
AAGTGAGG | -0.213
CCGGGTCA | 0.204
ACCCAAAT | -0.1
CGGAACCG | 0.321
TCCAATAA | 0.0302
AGCTTGAG | -0.172
CATTTAGA | -0.138
CGCCATAG | 0.111
CCTCGAGG | -0.256
ATGCTTCG | -0.0321
AGCATGCA | -0.153
AGCCATTA | -0.0951
ATTCTCGC | -0.14
AGCCGCTC | 0.37
ACCATAGG | -0.143
ATGTATGA | -0.159
CGTGTATA | 0.165
CAAGAGCA | -0.115

Study 4
Target: Sal-like protein 4, full length isoform A (SALL4, Homo sapiens, UniProt Q9UJQ4, residues 1-1053)
Sequence of UniProt Q9UJQ4 (whole entry, looked up): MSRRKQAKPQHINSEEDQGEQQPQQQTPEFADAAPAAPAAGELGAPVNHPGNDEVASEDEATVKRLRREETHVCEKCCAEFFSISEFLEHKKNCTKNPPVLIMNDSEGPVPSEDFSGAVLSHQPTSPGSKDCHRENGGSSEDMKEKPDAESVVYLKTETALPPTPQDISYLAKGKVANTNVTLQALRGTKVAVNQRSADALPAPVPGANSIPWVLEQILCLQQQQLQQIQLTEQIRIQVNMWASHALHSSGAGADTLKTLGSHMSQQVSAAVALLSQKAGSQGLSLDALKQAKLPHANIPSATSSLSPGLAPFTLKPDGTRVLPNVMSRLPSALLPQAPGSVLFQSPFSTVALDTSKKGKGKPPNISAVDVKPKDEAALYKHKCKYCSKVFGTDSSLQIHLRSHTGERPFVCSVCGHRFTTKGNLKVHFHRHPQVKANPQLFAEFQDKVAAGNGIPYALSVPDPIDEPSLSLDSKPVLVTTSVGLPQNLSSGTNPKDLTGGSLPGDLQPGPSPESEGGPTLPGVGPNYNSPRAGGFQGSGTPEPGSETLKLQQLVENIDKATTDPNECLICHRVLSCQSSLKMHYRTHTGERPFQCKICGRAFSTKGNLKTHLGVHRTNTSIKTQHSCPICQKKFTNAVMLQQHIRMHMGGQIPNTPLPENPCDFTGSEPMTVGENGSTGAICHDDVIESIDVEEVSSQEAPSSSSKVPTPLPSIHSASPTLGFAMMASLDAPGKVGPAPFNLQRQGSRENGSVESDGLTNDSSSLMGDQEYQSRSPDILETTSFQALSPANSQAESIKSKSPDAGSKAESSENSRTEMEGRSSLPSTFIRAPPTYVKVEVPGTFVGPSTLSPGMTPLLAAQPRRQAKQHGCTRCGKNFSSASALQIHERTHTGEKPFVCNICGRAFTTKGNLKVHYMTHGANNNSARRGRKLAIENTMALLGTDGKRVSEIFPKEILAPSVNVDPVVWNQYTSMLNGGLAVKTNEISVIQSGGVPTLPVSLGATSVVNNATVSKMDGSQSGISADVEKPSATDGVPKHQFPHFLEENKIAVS
Technique: universal PBM
Form: double-stranded DNA, one strand shown
Medium: in vitro
Tested at: 600 nM
Notes: 8-mer, flanks averaged, mean of replicates
Direction: higher = stronger binding
Oligonucleotide | E-score
CGCCAGAG | -0.214
GGTCTTTA | 0.132
CTGAGACC | -0.102
TAGCGAAA | 0.196
GCACACGC | -0.193
CTGTAAGA | 0.0348
TCGCGTCA | 0.00578
CAAATCTG | 0.0581
CAATAAGG | 0.0488
CTGCCTTC | -0.128
AGATCCCT | -0.166
CCGAGCGC | -0.285
CTAACAAA | 0.183
GTAAAAGA | 0.0799
AAGACGGA | -0.0469
ATTCTCAG | 0.165
CCCATGAG | -0.138
AAACTGCT | 0.0396
GTGAGAAC | -0.0976
CTGTATAC | 0.223
ATAGAGCC | -0.101
AGCTTATC | -0.0382
TGAGATCA | -0.0735
CCAAGCAC | -0.0878
GGCTCTAC | -0.159

Study 5
Target: RNA binding protein fox-1 homolog 2, RRM domain, GST-SBP tag (RBFOX2, Homo sapiens, UniProt O43251-10, residues 100-194)
Technique: RNA Bind-n-Seq
Form: RNA
Medium: in vitro
Tested at: 365 nM
Notes: natural RNA segment, single round, ends assumed
Baseline: no-protein control
Direction: higher = stronger binding
Target sequence (chain): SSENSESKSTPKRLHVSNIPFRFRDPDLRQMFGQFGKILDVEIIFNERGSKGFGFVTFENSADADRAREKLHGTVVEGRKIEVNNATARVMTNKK
Oligonucleotide | RBNS enrichment (R)
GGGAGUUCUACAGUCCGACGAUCCGGUCCACAGGAAGGGCUAGGAGCUGAAUUAAAGAUGAGAGCAUCCCUCCUGCACACUGGGGCUUCCCUUCACCAGGAGCAAAUCACUUCAACCUCCCGUGCCUCGUUUCUGGAAUUCUCGGGUGCCAA | 0.778
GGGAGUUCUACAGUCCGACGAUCGGUGACCUCAGGGCCAGGCCCAUGGAUAACACCUGCUAUCCCUGCCCAGCGCCACGGGCCAGGAAGUACAAGUGUGGCCUGCCCCAGCCGUGUCCUGAGGAGCACCUGGCUGGAAUUCUCGGGUGCCAA | 0.397
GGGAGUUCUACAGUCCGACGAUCACACAGGCAGCUCCUUUCCCUUCACGUGGUCUGCAGAGAGCAGGGUGAGCUGCCAGCUGCCCCUCUCCACCAGGGUACCCUGUCUUGGUGGUUAGGGGCCACUUUUCCUUUGGAAUUCUCGGGUGCCAA | 0.279
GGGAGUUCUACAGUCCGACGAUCUUGCAGUUUACCAAUUCAAUAUAGCCCUGCAUUUAAAGUUCCUUUUUAAGAUUUGUGGAUUUUAUUUUUAUUAAGAACAUAGAUAUAUAAAGUACUGUAGUUUACAGGUAUGGAAUUCUCGGGUGCCAA | 0.935
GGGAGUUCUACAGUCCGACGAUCUUUAAAAGGGCGACAACUGACUCACGAGAUGGCGACCAUCUUGAGCCUAUUUGGGGAGACCUGUAUCCGUGACUUUUGUUUUUAAUAAAAAGAAAAAAAAAUCUGUUACUUGGAAUUCUCGGGUGCCAA | 0.398
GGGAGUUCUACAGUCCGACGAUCAGUGAAAAAUAACUGAAGUUCAUGGUUUUUAAAAAAGGUGAUGAUUCCUUUUAUGCUAUCACACACUACUGUCACCGAGACACUGACAAAGUGCUGGGUUCUCCAAGAGCUGGAAUUCUCGGGUGCCAA | 0.482
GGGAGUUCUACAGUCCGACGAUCUGAGAGGAACUAUACUACCAAAAGAGCCCAAAUGACCAAAUCCAUGGAUAAUUGCUUCACAGCCUUGGCCAUCCUGGCUCAGCUCUCAAUUUAGUAUAAUAUGCAGUUCCUGGAAUUCUCGGGUGCCAA | 0.44
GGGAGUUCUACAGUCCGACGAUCUUCCACUCGCCCACCAGAAGCAGCUCUAGUCACCUGCACAACCGCUUCCAUGACCUUGGAGGUAUAUCCCAAGCUCUCAUUGGCAGAUGAGGCAAGAGAUAAGGGCAGGAUGGAAUUCUCGGGUGCCAA | 0.45
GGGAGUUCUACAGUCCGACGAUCCUUUGCUAUGUAGCUUAGAGUGACCUUAAACUUAUGAUCCCCCUGCCUCCACCUCCUCAAUGCCGUACCACUAUACCAGUUUGAGUGGUGCUGGGUAUGGAACCCAGGGCUGGAAUUCUCGGGUGCCAA | 0.353
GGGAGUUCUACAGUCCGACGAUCCGUAUGUACACUGCAAUCAUUUCAUACUUUUGACUGGUCAGAAAAAAAAAACUAAUUGUGAUUUCUAGUCUUGCAAAGCUGUAUGCAGUUAGAUGAUGUGACCUCUAAUAUGGAAUUCUCGGGUGCCAA | 0.49
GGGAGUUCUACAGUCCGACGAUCGUGGCUGUCCAUCCCUGGAUAGCUAUUUGCACGAAUCAUGGACAUAAAUCCAAGUUGAAGAAGAUCACAUUCUGACUCAUGUUCAUUUAUGCGCUAAUGUUCCCCUGUCAUGGAAUUCUCGGGUGCCAA | 0.432
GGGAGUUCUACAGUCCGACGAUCAGGCCUCCCCUCGAAAGACACUGGGAGGUCAGCAUGUUCCACAGGUGUUCAGAGGGAGUCUGCUACAAACUAUCAGGGCAAAAUCUCACUGGAUUUCUCCACUGAAAACCUGGAAUUCUCGGGUGCCAA | 2.85

Other studies, line by line
Substance | target | assay | system | conditions | scale | quantity | result
PhoQ, residues 284 288 289 292 302 303 TVTVVA | PhoP, residues 12 14 15 18 19 TPLRH (Escherichia coli, UniProt P23836) | Sort-seq, item: YFP reporter | E. coli | PhoQ-PhoP variant library, together with: 10 µM Mg2+ | baseline: high Mg2+ state, higher = stronger signaling | fold induction | 0.892

For quick reference, copied from above (study 3):
Oligonucleotide | E-score
CGCCATAG | 0.111
ACACCTCT | -0.0636
AGATGCCC | -0.0776
CCTCGAGG | -0.256
CATTTAGA | -0.138
AGCATGCA | -0.153
AGCTTGAG | -0.172
